Experimental data pooled from the literature.
Numbered parts are unrelated; each lists some results of a single study.

Study 1
Target: Ras GTPase-activating protein-binding protein 1, full length (G3BP1, Homo sapiens, UniProt Q13283)
Sequence of UniProt Q13283 (whole entry, looked up): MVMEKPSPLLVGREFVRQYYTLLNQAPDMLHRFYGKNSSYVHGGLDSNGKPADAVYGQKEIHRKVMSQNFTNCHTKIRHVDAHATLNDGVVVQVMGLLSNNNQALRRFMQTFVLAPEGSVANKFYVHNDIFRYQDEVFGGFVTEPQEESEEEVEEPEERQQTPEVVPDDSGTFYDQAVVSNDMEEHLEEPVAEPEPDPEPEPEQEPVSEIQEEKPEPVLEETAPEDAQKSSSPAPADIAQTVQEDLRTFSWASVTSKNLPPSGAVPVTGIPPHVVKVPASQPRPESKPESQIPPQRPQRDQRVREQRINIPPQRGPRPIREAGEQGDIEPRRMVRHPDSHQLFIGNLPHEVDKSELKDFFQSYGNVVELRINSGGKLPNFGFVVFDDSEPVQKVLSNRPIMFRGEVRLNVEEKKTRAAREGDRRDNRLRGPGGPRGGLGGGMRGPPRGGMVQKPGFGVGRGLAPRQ
Technique: RNA Bind-n-Seq
Form: RNA
Sample: in vitro
Concentration: 200 nM
Notes: whole 134-nt RNA, ends assumed
Together with: 150 mM KCl
Baseline: input library
Direction: higher = stronger binding
Strand	log2 enrichment
GGGAGUUCUACAGUCCGACGAUCCUGUGCUACACAUCGUAUGUACCGAAUCGGUUUUUUUGGGUUUUUUUGGGGUUUUUUUGGGAAAGUAUUAUGUUACGCCGUUCGGAUCUGUGGAAUUCUCGGGUGUCAAGG	-1.02
GGGAGUUCUACAGUCCGACGAUCUUGUUUGAAACAGCAACGCUUCGGUCAGGGUAUCUUUUACCAGACACUAAAGCAUAUGGAGAUAGAAUAGAAAGAAUGCUUCGCCUCAGUUGGAAUUCUCGGGUGUCAAGG	-1.07
GGGAGUUCUACAGUCCGACGAUCUGGGAGGUGGAUUUUGUUUAUUUUUUUAGCUCAUCUCCAGGGGUGGGAAUUUUUUUUUAAUAUGUGUCAUGAAUAAAGUUGUUUUUGAAAUGGAAUUCUCGGGUGUCAAGG	0.229
GGGAGUUCUACAGUCCGACGAUCCCUGUGCUACACAUCGUAUGUACCGAAUCGGGGAGGGGUUUUUUUGGGGUUUUUUUGGGGAAAGUAUUAUGUUACGCCGUUCGGAUCUGCUGGAAUUCUCGGGUGUCAAGG	0.1

Study 2
Target: RNA binding protein fox-1 homolog 2, RRM domain, GST-SBP tag (RBFOX2, Homo sapiens, UniProt O43251-10, residues 100-194)
Technique: RNA Bind-n-Seq
Form: RNA
Sample: in vitro
Concentration: 365 nM
Notes: natural RNA segment, single round, ends assumed
Baseline: no-protein control
Direction: higher = stronger binding
Shared flanks, not repeated: GGGAGUUCUACAGUCCGACGAUC … UGGAAUUCUCGGGUGCCAA
Strand	RBNS enrichment (R)
GUUAACUUCAUUCUUUCCUGCUGUUAGGAACAUAGGCCUAAAAUUGUCUCUUGAGUUUGCUCACCCUUUUGUUUUGGUAGGGUUUUUUUGUUGUUGCUGUUAUUGUUUCU	1.32
CACACACACGCACAGGGGAAUAAAAUAAGAAAAUCAUUUUCCUCACCAUAGACUUGAUCCCAUCCUUACAACCCAUCCUUCUAACUUGAUGUGUAUAAAAUAUGCAAACA	0.527
AAAAGGUGCUUGAUGUGGCAGCAGACUUCUUGGAGACUGAAGCACAGUGGCUGCCAGACGCCUGCACUGGAAAGGCGAACGAACUCUGUAUCUUCCAUCGGUGGCCAAGG	0.57
GAGCAUUGGCUGCUCCUCUAGAGGACCCAGGUUCAAUUCCCAGCGCCCACACAUCAGCUCACAACUGUCUGUAACCCAGUUCUAGGUGAUUUGAUACCCUCACACAGACA	0.362
AUCUAAAAAAAUGUAUAUGGGUAAGGACCUGAAAGAUCCAUGGAAAAGUUAACCCAGUUGAGAUUUUUAAAAAGUUUUACAAAUACAUAUAACACUUAUGUGCUGGGCUU	0.714

Study 3
Target: Interferon regulatory factor 3, full length, phosphomimetic (IRF3, Homo sapiens, UniProt Q14653, residues 1-427, S386D/S396D/S398D/S402D/T404D/S405D)
Technique: protein-binding microarray
Form: double-stranded DNA, one strand shown
Sample: in vitro
Concentration: 2540 nM top
Notes: 60-bp whole probe
Together with: salmon DNA 0.4 mg/ml
Baseline: random background probes
Direction: higher = stronger binding
Shared flanks, not repeated: GCCTAGCAC … GTCTTGATTCGCTTGACGCTGCTG
Construct (chain): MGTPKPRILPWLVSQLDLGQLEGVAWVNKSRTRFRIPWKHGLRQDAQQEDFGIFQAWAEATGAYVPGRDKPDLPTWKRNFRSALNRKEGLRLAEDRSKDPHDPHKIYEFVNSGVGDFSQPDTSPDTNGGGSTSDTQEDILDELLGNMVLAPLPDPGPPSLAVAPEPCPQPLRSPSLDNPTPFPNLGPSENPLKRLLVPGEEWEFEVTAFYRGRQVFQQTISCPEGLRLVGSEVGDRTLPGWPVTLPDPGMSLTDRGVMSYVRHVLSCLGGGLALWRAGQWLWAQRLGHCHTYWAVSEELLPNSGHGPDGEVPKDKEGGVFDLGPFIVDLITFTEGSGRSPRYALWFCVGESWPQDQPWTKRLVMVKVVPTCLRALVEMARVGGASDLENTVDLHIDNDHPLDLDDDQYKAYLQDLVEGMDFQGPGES
Strand	fitted relative affinity
TTAGATCTGAGACTGGATTAGTGCTAG	-0.415 z-score
GACGGAATGGGTCTCGGGACGTGCTAG	-0.447 z-score
ACTTTTTTCTGATTGAATCTGTGCTAG	1.94 z-score
TTAGGTATCGACTTTCGCTTAGTGCTA	1.08 z-score
TTACGTATCGACACTGGGTTAGTGCTA	0.52 z-score
GACAGACTGCTTTTCCTGACGTGCTAG	-0.0494 z-score
CTTTAACTCATTCTCCACTTGTGCTAG	1.71 z-score

Single results of other studies
Substance	target	test	system	setting	how to read	measurement	value
PhoQ, residues 284 288 289 292 302 303 ASHLAV	PhoP, residues 12 14 15 18 19 SQCLL (Escherichia coli, UniProt P23836)	Sort-seq, item: YFP reporter	E. coli	PhoQ-PhoP variant library, together with: 10 µM Mg2+	baseline: high Mg2+ state, higher = stronger signaling	fold induction	9.96

Some of these lines once more (study 2):
Strand	RBNS enrichment (R)
AAAAGGUGCUUGAUGUGGCAGCAGACUUCUUGGAGACUGAAGCACAGUGGCUGCCAGACGCCUGCACUGGAAAGGCGAACGAACUCUGUAUCUUCCAUCGGUGGCCAAGG	0.57
GUUAACUUCAUUCUUUCCUGCUGUUAGGAACAUAGGCCUAAAAUUGUCUCUUGAGUUUGCUCACCCUUUUGUUUUGGUAGGGUUUUUUUGUUGUUGCUGUUAUUGUUUCU	1.32
